Measurements gathered from unrelated publications.
Parts stem from different laboratories: compare values within a part only. Positions count from the first letter of the parent shown.

Sample 1 — technique: protein binding microarray; molecule type: double-stranded DNA, one strand shown; medium: in vitro; concentration: not given; relative to: not given; direction: higher = stronger binding
Target: Histone acetyltransferase KAT6A, winged helix 2, GST fusion (KAT6A, Homo sapiens, UniProt Q92794, residues 85-181)
Setting: 8-mer, flanks averaged, mean of 2 arrays, mostly near background
Target sequence (chain): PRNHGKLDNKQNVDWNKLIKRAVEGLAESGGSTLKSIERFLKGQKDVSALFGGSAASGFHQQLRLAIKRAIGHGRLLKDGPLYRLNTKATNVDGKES
`GATTTCGC` has an E-score of 0.305.
With `ATCTGCCA` the E-score was -0.00297.
`GCGGCTCC` has an E-score of -0.0315.
For `ATAGCGTG`, the E-score was -0.162.
For `AGCAGCCT`, the E-score was -0.0474.
With `AACCCAAG` the E-score was -0.162.
The E-score of `CCCACATC` is reported as -0.0535.
With `CGACAACC` the E-score was 0.00328.
The E-score of `CTCCGCAG` is reported as 0.0213.

Sample 2 — technique: protein-binding microarray; molecule type: double-stranded DNA, one strand shown; medium: in vitro; concentration: 2200 nM top; setting: 60-bp whole probe; added: salmon DNA 0.4 mg/ml; relative to: random background probes; direction: higher = stronger binding; all sequences stand within: GCCTAGCAC … GTCTTGATTCGCTTGACGCTGCTG
Target: Interferon regulatory factor 7, full length, phosphomimetic (IRF7, Homo sapiens, UniProt Q92985, residues 1-503, S471D/S472D/S475D/S476D/S477D/S483D/S484D/S487D)
Residues (chain): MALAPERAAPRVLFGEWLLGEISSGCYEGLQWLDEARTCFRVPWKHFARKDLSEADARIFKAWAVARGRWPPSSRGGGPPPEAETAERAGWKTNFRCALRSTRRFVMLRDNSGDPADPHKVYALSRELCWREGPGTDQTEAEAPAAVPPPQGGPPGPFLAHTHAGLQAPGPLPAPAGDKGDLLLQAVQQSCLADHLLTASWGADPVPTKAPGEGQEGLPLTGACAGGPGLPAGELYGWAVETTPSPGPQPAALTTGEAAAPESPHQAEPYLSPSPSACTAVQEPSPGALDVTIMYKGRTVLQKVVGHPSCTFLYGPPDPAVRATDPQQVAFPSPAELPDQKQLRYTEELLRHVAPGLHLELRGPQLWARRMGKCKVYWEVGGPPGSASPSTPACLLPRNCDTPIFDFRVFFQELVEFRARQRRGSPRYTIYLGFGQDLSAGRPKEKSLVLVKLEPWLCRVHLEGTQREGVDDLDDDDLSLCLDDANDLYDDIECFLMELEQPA
For `TACGGTTTCCTTTTCCTGACGTGCTAG`, “fitted relative affinity” read 5.87 z-score.
`TCACTTATCCTTCCCCTACTGTGCTAG`: “fitted relative affinity” 3.1 z-score.
For `TTAGGTTTCGACATTGGGTTAGTGCTA`, “fitted relative affinity” read 3.22 z-score.
`TTAGGTATCCTAATGCTTTAGTGCTAG`: “fitted relative affinity” 0.236 z-score.
`TCAGCTTCCATTTTCTGACTGTGCTAG`: “fitted relative affinity” 2.95 z-score.
`TTAGGACTGGGGACTGTGTTAGTGCTA`: “fitted relative affinity” -0.576 z-score.
`TCAGAATTACCTCTGGAACTGTGCTAG`: “fitted relative affinity” -0.34 z-score.
`GACGGTATCGGTATCGGGAAGTGCTAG`: “fitted relative affinity” 0.309 z-score.
`GACGGTCTCCTTCGCCTGACGTGCTAG` — result for “fitted relative affinity”: 0.787 z-score.

Sample 3 — target: CCNA2, cyclin fold, Cln2 fusion (human); technique: yeast growth competition, sequencing; medium: yeast; setting: strong parent motif; relative to: not given; direction: higher = stronger binding
Starting sequence: GMNC docking peptide (human); KNAKRNLSSEFAN; partner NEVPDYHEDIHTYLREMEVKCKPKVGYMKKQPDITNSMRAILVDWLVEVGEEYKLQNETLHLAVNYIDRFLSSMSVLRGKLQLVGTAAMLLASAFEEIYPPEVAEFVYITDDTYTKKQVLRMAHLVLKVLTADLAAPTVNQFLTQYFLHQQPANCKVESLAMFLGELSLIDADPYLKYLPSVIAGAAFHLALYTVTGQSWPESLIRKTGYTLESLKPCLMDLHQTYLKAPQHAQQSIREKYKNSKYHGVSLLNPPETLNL
`K4S` — result for “normalised enrichment score”: 2.98.
For `R5C`, “normalised enrichment score” read 0.446.
`S9M` — result for “normalised enrichment score”: 5.5.
`F11I`: “normalised enrichment score” 0.938.
For `L7R`, “normalised enrichment score” read 0.164.
Under “normalised enrichment score”, `R5Q` is recorded as 0.508.
`A12D` — result for “normalised enrichment score”: 5.1.

Single results of other studies
With `PhoQ, residues 284 288 289 292 302 303 ASTSDA` the fold induction was 6.6 (PhoP, residues 12 14 15 18 19 AWHSL (Escherichia coli, UniProt P23836); Sort-seq, measured: YFP reporter; E. coli; PhoQ-PhoP variant library, added: 10 µM Mg2+; relative to: high Mg2+ state, higher = stronger signaling).

Repeated from above (sample 2):
`TTAGGACTGGGGACTGTGTTAGTGCTA`: “fitted relative affinity” -0.576 z-score.
`TCAGAATTACCTCTGGAACTGTGCTAG`: “fitted relative affinity” -0.34 z-score.
`GACGGTATCGGTATCGGGAAGTGCTAG`: “fitted relative affinity” 0.309 z-score.
